Assay results collected from several papers.
Every numbered part comes from another study and shows a few of its results, in no order. Changes are numbered by the printed parent chain.

Study 1
Target: Interferon regulatory factor 5, full length, phosphomimetic (IRF5, Homo sapiens, UniProt Q13568-2, residues 1-514, S451D/S453D/S456D/S462D)
Technique: protein-binding microarray
Molecule type: double-stranded DNA, one strand shown
Medium: in vitro
Concentration: 940 nM top
Setting: 60-bp whole probe
Added: salmon DNA 0.4 mg/ml
Baseline: random background probes
Reading: higher = stronger binding
Shared flanks, not repeated: GCCTAGCAC … GTCTTGATTCGCTTGACGCTGCTG
| Sequence | fitted relative affinity |
| --- | --- |
| TCACTCCTCTAGGTTCTCACTGTGCTA | 0.648 z-score |
| CTAGGTTTCGACTTTCGGTTAGTGCTA | 7.7 z-score |
| GACGCTTTCGGGTTTCGAGACGTGCTA | 4.23 z-score |
| TTAGCTATCAGTATCGATTAGTGCTAG | 4.52 z-score |
| TTAGGGCTCGGTATCGGTTAGTGCTAG | 4.09 z-score |
| ACTGATCACCGATTTCCTTCAGTGCTA | 0.208 z-score |
| TCATGTTTTGTTTTTCAACTGTGCTAG | 1.37 z-score |
| TCACCTTGCATGTTTTTGACTGTGCTA | 0.342 z-score |
| CTAGATTCCAGTTTCGATTAGTGCTAG | 8.93 z-score |
| AGGAATTTCCCACTTTCACTGTGCTAG | 1.93 z-score |
| GACGATCTCAGACTGGACACGTGCTAG | -0.287 z-score |
| GACGATTCCAGGTTCGAGACGTGCTAG | 0.148 z-score |
| TCACATTTGATAAATCTTACTGTGCTA | 0.334 z-score |
| GACGGTTTCGGGTATCCGGACGTGCTA | 10.1 z-score |
| GGCGGTTTCGGGTTTCGGGACGTGCTA | 9.71 z-score |
| GGCGAACTGGGGTTTCGAGACGTGCTA | 1.93 z-score |
| CTTAGCATGGGGAGGGAGCAGTGCTAG | 1.34 z-score |
| CAGAATCCCCTTCTACTCTCGTGCTAG | 0.682 z-score |
| TCATTTTTTAATTGAGAACTGTGCTAG | -0.225 z-score |

Study 2
Target: Sal-like protein 4, full length isoform B (SALL4, Homo sapiens, UniProt Q9UJQ4-2, residues 1-616)
Technique: universal PBM
Molecule type: double-stranded DNA, one strand shown
Medium: in vitro
Concentration: not given
Setting: 8-mer, flanks averaged, mean of replicates
Reading: higher = stronger binding
| Sequence | E-score |
| --- | --- |
| AAGTTACT | 0.131 |
| AACAGGCA | 0.0511 |
| AAGTCTAA | 0.106 |
| AGTCGGAA | -0.213 |
| GCCGAGAC | -0.272 |
| ATTATCAG | 0.231 |
| TATCTAAA | 0.245 |
| ATCCCGCG | -0.00563 |
| GAGCTCGA | -0.151 |
| AGGGAAGC | -0.0295 |
| GTTATCGA | -0.0223 |
| CATTTCCG | 0.0912 |
| GATAATCA | 0.218 |
| AGGGACGC | -0.262 |
| ACGAGTCC | -0.141 |
| ACGTTTTA | 0.233 |
| GGTTTCCA | -0.0492 |
| CCCTCGAG | -0.206 |
| CAACATGG | -0.0285 |
| ACCTGGAC | -0.315 |
| AAACAGCT | -0.0674 |

Study 3
Target: RING finger protein unkempt homolog, zinc fingers 1-6, SBP tag (UNK, Homo sapiens, UniProt Q9C0B0, residues 30-357)
Chain of UniProt Q9C0B0 (30-357, looked up): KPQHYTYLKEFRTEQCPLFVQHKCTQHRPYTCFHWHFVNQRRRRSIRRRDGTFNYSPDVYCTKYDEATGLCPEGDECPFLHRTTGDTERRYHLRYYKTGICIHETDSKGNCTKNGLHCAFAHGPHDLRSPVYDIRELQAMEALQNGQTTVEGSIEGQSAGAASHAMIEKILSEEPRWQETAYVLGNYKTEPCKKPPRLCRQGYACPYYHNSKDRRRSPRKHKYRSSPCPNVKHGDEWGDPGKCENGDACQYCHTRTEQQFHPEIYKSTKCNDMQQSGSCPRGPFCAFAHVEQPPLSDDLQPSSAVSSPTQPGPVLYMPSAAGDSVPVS
Technique: RNA Bind-n-Seq
Molecule type: RNA
Medium: in vitro
Concentration: 100 nM
Setting: RNA with constant flanks, vertebrate orthologous sites, ends assumed
Baseline: input RNA pool
Reading: higher = stronger binding
Shared flanks, not repeated: GGGAGUUCUACAGUCCGACGAUC … CAACAGAGGAUUGAGCAUCA
| Sequence | bound/input enrichment |
| --- | --- |
| AUUCAAACCUGUGGUACCAUGGCCUCAUGUUGAAGGAGUAGAAGUGGAUUUAGAGUCUAUUAGAAGAAAAAACAAGGCCAAAAAUGAACAUGAACACCAUGCUGGCGGAGAUUCCCAGAA | 0.413 ratio |
| CUACUGUAAACAACUCAGGGCAGUAUUCUCGAUAUCCUUACAGUAACCUAAAUCAGGGAUUAGUUAACAGUACAGGGAUGAAUCAAAAUUUAGGCCUUACAAACAGUACUCCAAUGAAUC | 1.07 ratio |
| CUUUAUGGGCCUCGCAGAGUUGAAAUAAUGGAAGAGGAAAGUGAUCAGUAAUCUUCAUUUUAGUAUUUAUGCUUAGGUGUGAAAUAAAUGUUCAUCGAUCAUUUCUAUAAUCCAGAGCUU | 0.318 ratio |
| UCUUUAUUCCUUCCUUUUCCUUUUUUCGUUUUUUUCUUUUUUCUUUUUUUUUUUUUUUGGUAGUUGUUGUUACCCACGCCAUUUUACGUCUCCUUCACUGAAGGGCUAGAGUUUUAACUU | 2.79 ratio |
| AGAGACAAUGGCCACUUAUCACCUCAGUGAGGUAAAGGCUCCUUGGUAUUUGGUUGGUACUAAAGCCAGUGAUUCCUCAUAAGUCUUUUCACAUUUCAUUUCUUUCAUACUCAGUCAUCU | 0.609 ratio |
| AGGCAAAAAAUCCUGGCUGCUUUUUGUGAGGUAAAGUGCCCGUUGGCAUGUGGUUGAUACCAGCACCAUUGUCCCUAGUCUCUCAGUGUUUCAUUUCUUCCAUACAAGUUCUCAUCAGAC | 0.4 ratio |
| GGAAAGUUACAGACCAGACACUGAAAGUAGGAGCACAGGAUCCUGGUUGUCGUCCUCUUUGAGGAACAGAUGUACACCUCUCUUUUCCAGAAGAAGAAGAGAAGGAAGAGAUGAAUCUGC | 0.381 ratio |
| UCCAGCCUCAGCUGGCUGUUUCGCAGCAUUCCUUACACAGCUAUUUAACAAGUACAAGUGGAGUUAACUUUCAGGAUACAUCUAGGCACUCAGCAUUAUCCUGCAGUCCAGUUGGAGAUG | 0.197 ratio |

Study 4
Target: CCNB1, cyclin fold, Cln2 fusion (human)
Technique: yeast growth competition, sequencing
Medium: yeast
Setting: weak parent motif
Baseline: not given
Reading: higher = stronger binding
Starting sequence: DOT1L docking peptide (human); SEAKRRIVFTITT
| Variant | normalised enrichment score |
| --- | --- |
| I11A | -0.0611 |
| F9A | 0.373 |
| V8A | 0.0159 |
| T12A | 0.334 |
| K4A | 0.0216 |
| T10A | 0.143 |

Study 5
Target: RNA binding protein fox-1 homolog 2, RRM domain, GST-SBP tag (RBFOX2, Homo sapiens, UniProt O43251-10, residues 100-194)
Technique: RNA Bind-n-Seq
Molecule type: RNA
Medium: in vitro
Concentration: 365 nM
Setting: natural RNA segment, single round, ends assumed
Baseline: no-protein control
Reading: higher = stronger binding
Shared flanks, not repeated: GGGAGUUCUACAGUCCGACGAUC … UGGAAUUCUCGGGUGCCAA
| Sequence | RBNS enrichment (R) |
| --- | --- |
| GUACUAAACAGAUGGGGGUUCACUCUAGGUCAUAAAUACAAUUACCUACUAAGUAGCAAGAAUGCCUCAGCAAUCCCCAAGCCUUCCAGUGCCUCUGGGGGCUUCCUGAU | 0.362 |
| CAAAGGAGCGUCUCUGGCAGUCAAGAUAAAAAAACAGUUUCUAUUGUAUUUUGUGGAACUGUAUCUGUUGUCAUUUUUAAAAAGGGGGGAAAAGAUAACAUCCAAGUCUG | 0.774 |
| UACUGACCACUGGGUAUGUAAUCUUUGAGGGAUAUGCGCUUUUAGGAAAAAGGAUUUCCCUUUAAGGGAGCAAUCUAAGAUAGUCUCUGAAAGGCAGAAAGUUUACAAAU | 0.625 |
| GGGACUUGGCCCCUGCUUGACCCUGGCAGAGGUGGAUGGUGAUUGGGAUAUAGGAAAAGCAGUGGGCAGAGGCCUGACUGACCUGAUAUUCAAUCUGCACAAAGUCCAAG | 0.979 |
| AAGAGAACUUCUCAGUCUCCAGGAAGAUAGCAUCUUUUCAUGAGUGUUUGAAUGAAAACAACACGAAGGCUCAAUAUCACAUGGAUUUCCCAGUUUCUGUCUUUAAUAAG | 0.423 |
| AGAUGGUGGAGAUUGGCAUGCCAUUGAAACUAAGAGCUCUCAAGUCAAGGAAGCUGGGCUGGGCAGUAUCCCCCGCCUUUAGUUCUCCACUGGGGAGGAAUCCUGGACCA | 0.858 |
| UUUGUUUUCUUUUUUGUCUUGAAUGAAUUUUAAAAGGAAAUAUAUAAUAAAAAUGUUAACCAGAAGGUAAACUUGAGUGUAAUUGUCAGACAGACACACUUUUCCACCAG | 0.542 |
| GAGCUGUUUAUGGCAAUUUAAUACCAUUCUCUUUGUAAAGUGAAUAAAUAUUCAUCUUUACCCAGUGCUUGUCUUGUGGUAUAUGUAGAGGAAUACAGCCACAUGUUUGG | 0.799 |

A few entries again (study 1):
| Sequence | fitted relative affinity |
| --- | --- |
| CTAGATTCCAGTTTCGATTAGTGCTAG | 8.93 z-score |
| AGGAATTTCCCACTTTCACTGTGCTAG | 1.93 z-score |
| GACGATCTCAGACTGGACACGTGCTAG | -0.287 z-score |
| GACGATTCCAGGTTCGAGACGTGCTAG | 0.148 z-score |
| TCACATTTGATAAATCTTACTGTGCTA | 0.334 z-score |
| GACGGTTTCGGGTATCCGGACGTGCTA | 10.1 z-score |
